Measured values collected from several papers.
Protocols differ between the studies behind these lines. Values joined by “and” are separate records of one study, mostly repeats; a detail may differ.
PIK3CD: Phosphatidylinositol 4,5-bisphosphate 3-kinase catalytic subunit delta isoform (PIK3CD, Homo sapiens, UniProt O00329)
PIK3CD with p85 alpha: Phosphatidylinositol 4,5-bisphosphate 3-kinase catalytic subunit delta isoform, with p85 alpha (PIK3CD, Homo sapiens, UniProt O00329)

Nc1ncc2c(n1)-c1c([nH]c3ccc(C4=CCOCC4)cc13)CCC2  remaining binding (PIK3CD; binding, competition with immobilised ligand; 1 µM): 99%
CN1CCN(Cc2ccc(-c3ccc(CO[C@H]4CCC[C@@H]4NC(=O)c4cc(-c5cnn(C)c5)cnc4N)cc3)cc2)CC1  inhibition (PIK3CD with p85 alpha; SelectScreen kinase profiling; 0.1 µM): -15%
CNC(=O)C[C@H](Cc1ccc(C#N)cc1)NC(=O)c1cc(-c2ccc(CN[C@H](C)c3ccc(C)cc3)o2)ccc1Cl  remaining activity (PIK3CD with p85 alpha; enzyme activity, KinaseProfiler panel; 1 µM): 101%
COc1cc(Nc2nc(C)cc(-c3cnn4nc(OC)ccc34)n2)cc(C(F)(F)F)c1  remaining activity (PIK3CD; inhibitor; 1 µM; relative to: control): 88%
CC(=O)c1cnc(N)nc1N1CC[C@H]1c1nn2ccc(Cl)c2c(=O)n1-c1ccccc1  inhibition of probe binding (PIK3CD; kinase occupancy, inhibitor, KiNativ ATP probe profiling; intact PBMC; 0.1 µM, 1 h): 77.2%
COc1c(Cl)cccc1Nc1c(-c2ccncc2C#C[C@@]2(C)CCCN2C(=O)/C=C/CN(C)C)[nH]c2c1C(=O)NCC2  remaining binding (PIK3CD; cell-free assay, competition with immobilised ligand; 3 µM): 83%
Cc1cnc2nc1Nc1cccc(c1)COC/C=C/COCc1cc(ccc1OCCN1CCOCC1)N2  remaining binding (PIK3CD; binding; 0.1 µM): 69%
C=CC(=O)N1CCCC(n2c(=O)c3ncccc3n(Cc3ccc(Oc4ccccc4)cc3)c2=O)C1 (centres unmarked)  remaining binding (PIK3CD; cell-free assay, competition with immobilised ligand; 1 µM): 100%
Cc1nc2c(F)cc(-c3nc(Nc4ccc(CNC(=O)CCCCCCC(=O)NO)cc4)ncc3F)cc2n1C(C)C  inhibition (Phosphatidylinositol 4,5-bisphosphate 3-kinase catalytic subunit delta isoform, with p85 (PIK3CD, Homo sapiens, UniProt O00329); enzyme activity, inhibitor; 1 µM): 47%
C=CC(=O)Nc1cccc(-c2cnc3[nH]cc(C(=O)NC(C)(C)C)c3n2)c1  inhibition (PIK3CD; kinase activity; 0.1 µM): 23% and 14%
CCN1CCN(Cc2ccc(C(=O)Nc3ccc(C)c(NCc4cnc5[nH]ccc5c4OC)c3)cc2C(F)(F)F)CC1  remaining binding (PIK3CD; binding, competition with immobilised ligand; 1 µM): 81%

For quick reference, copied from above:
CN1CCN(Cc2ccc(-c3ccc(CO[C@H]4CCC[C@@H]4NC(=O)c4cc(-c5cnn(C)c5)cnc4N)cc3)cc2)CC1  inhibition (PIK3CD with p85 alpha; SelectScreen kinase profiling; 0.1 µM): -15%
CNC(=O)C[C@H](Cc1ccc(C#N)cc1)NC(=O)c1cc(-c2ccc(CN[C@H](C)c3ccc(C)cc3)o2)ccc1Cl  remaining activity (PIK3CD with p85 alpha; enzyme activity, KinaseProfiler panel; 1 µM): 101%
